Assay results pooled from the literature.
Parts stem from different laboratories: compare values within a part only. Substitutions count along the parent as printed.

Study 1
Target: ABI1, truncated, D143A, DHFR fusion (Arabidopsis thaliana)
Method: DHFR PCA, deep sequencing
Sample: yeast
Notes: methotrexate growth selection, single substitutions
With: (+)-ABA 0.0091 µM
Reference: wild-type fitted maximum
Reading: higher = stronger binding
Parent: PYL1, truncated, DHFR fusion (Arabidopsis thaliana); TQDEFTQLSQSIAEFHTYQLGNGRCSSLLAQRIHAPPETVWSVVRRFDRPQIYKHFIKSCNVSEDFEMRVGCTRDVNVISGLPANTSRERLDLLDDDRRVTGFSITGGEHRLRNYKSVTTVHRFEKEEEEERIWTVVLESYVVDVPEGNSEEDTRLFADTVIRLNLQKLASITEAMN
Substitution | relative binding score [%]
H110E | 46.4
L156S | 3.22
L20Y | 20
S117G | 5.73
D3I | 13.4
N149Y | 24.6
V121K | -3.2
E67I | 21.2
V70W | -3.17
T101D | -7.24
L112R | -0.573
F15E | -1.03
I33S | -2.18
P37N | 0.454
L20I | 42.9

Study 2
Target: RNA binding protein fox-1 homolog 2, RRM domain, GST-SBP tag (RBFOX2, Homo sapiens, UniProt O43251-10, residues 100-194)
Method: RNA Bind-n-Seq
Molecule type: RNA
Sample: in vitro
Concentration: 365 nM
Notes: natural RNA segment, single round, ends assumed
Reference: no-protein control
Reading: higher = stronger binding
Construct (chain): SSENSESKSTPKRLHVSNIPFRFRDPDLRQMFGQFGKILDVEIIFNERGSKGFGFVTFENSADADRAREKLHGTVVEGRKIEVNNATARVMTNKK
Strand | RBNS enrichment (R)
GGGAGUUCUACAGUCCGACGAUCUGUGGUCAGCCUUACCCCUUCUCCGAGAACAAGCAGAGCGCUCUAUUUUUAACUAUGUUACACUCGUAAAUGACAAAACCAAAUCUUCUAUUAAAAGGCAAAGAUGAUGGUGGAAUUCUCGGGUGCCAA | 0.371
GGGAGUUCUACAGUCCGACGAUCGGGUGGCUUCCUCGAACGAUUAAACAAACUAGGUGCUUGUAUAUAAUUUAUUACAGUUUACUCUACUGCAUUUCUGUCAAGUUGAAAUGCAUGCCCUUCAGGGGAAGACUUGGAAUUCUCGGGUGCCAA | 0.99
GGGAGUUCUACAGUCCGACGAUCAUGUAAGACAUUUGAUCCCCUGUUGACUUACAAAAUUGUAAAUGGUAAAGCAGGCUAGAGUCUUAACCAUGGUGCUAUUCACUGGGUUUACUUGUUUAACACAAGUUUAUUGGAAUUCUCGGGUGCCAA | 0.389
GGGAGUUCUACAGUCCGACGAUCAAGUUCCCGUUGAGGAGGAGGCCCUUCAAUUGAGACUGUCCAGAGCUGUGACAAUGCACCAUAUUGAAGGGGUUAUCCUGUUAAUGCUCAUUUUUUCCUCUAAUUCAUAAUGGAAUUCUCGGGUGCCAA | 0.529
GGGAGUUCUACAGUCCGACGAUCAGGGCAUCCUGACUGAACUGUGUCUAAGGGUCGGUCGGUUUACCACUGGACGGGUGCUGCAUCGGCAAGGCCAAGUUGAACACCGGAUGGUGCCAACCAUCGGUUGUUUGUGGAAUUCUCGGGUGCCAA | 0.367
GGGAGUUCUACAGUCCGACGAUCCCAGCACUAAUGUGUUUUGUCCACUUCAAACGCUGUUCUAAUUGCCAACCGGCUGCUCUAGGCUCCUGAGGAGUGUCCCUUCUCAAAGGAACUGCGCCCUGGAAAGGGCUUGGAAUUCUCGGGUGCCAA | 0.322
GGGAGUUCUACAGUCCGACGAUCCCCAGAUGCCUCCUCUGUCCUCAUUCUUCUCUCCCACACAAGCAGUCUUUUUCUACAGCCAGUAAGGCAGCUCUGUCGUGGUAGCAGAUGGUCCCAUUAUUCUAGGGUCUUGGAAUUCUCGGGUGCCAA | 0.411
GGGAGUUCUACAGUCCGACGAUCGCCAAUCUGGAGCUUCAUGUUUCCUUCUAAAAGUAGUAACCGGGUAGAAGUGGGUGACCCAUUGAGGACACAUGAUGUGAGGUAUUUCUGCCGGAUUCUAGGUUAGCAAAUGGAAUUCUCGGGUGCCAA | 0.948
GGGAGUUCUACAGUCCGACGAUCUUCUGAUUGCCCAGGAGCAGUCAGUAGUGAGGAUACUGAGAAAACUUCCUUCCCAGAGAAAAUGGAUCCUCUAUGUGGGAUUGUAGGAAAGUGACUGGGUGUGCCAAAAAUGGAAUUCUCGGGUGCCAA | 0.835
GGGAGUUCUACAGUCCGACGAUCAUGCUAAUGUUGAUGACAGAAUUUAUUUGGUUGCCUUGUGUGUUAAUUGAAUGCAUACCUAAUUGUAAAAUUUUUUUAUUUACAACAUUGGAAAUUCAGAAGUUAAUGUUUGGAAUUCUCGGGUGCCAA | 1.46
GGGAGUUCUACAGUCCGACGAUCGUCAGUGCUUUGUUUAGAUGAUGACUUAAGACUUUUCAGCCUGUUUUACACACCCCAGCUCCCGUUAAAUUCUCCUGUGACUGCUAACAAACCCAUGUCUGCUUUCAGACUGGAAUUCUCGGGUGCCAA | 0.51
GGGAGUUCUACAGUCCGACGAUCCGCAGGCGGGGCAGUAUGUGAUGGACUGGGGAGCACAGGUGUCUGCCUAGAUCCACGUGUGGCCUCCGUCCUGUCACUGAUGGAAGGUUUGCGGAUGAGGGCAUGUGCGGUGGAAUUCUCGGGUGCCAA | 4.54

Study 3
Target: Histone acetyltransferase KAT6A, winged helix 1, GST fusion (KAT6A, Homo sapiens, UniProt Q92794, residues 1-85)
Method: protein binding microarray
Molecule type: double-stranded DNA, one strand shown
Sample: in vitro
Concentration: not given
Notes: 8-mer, flanks averaged, mean of 2 arrays, mostly near background
Reference: not given
Reading: higher = stronger binding
Residues (chain): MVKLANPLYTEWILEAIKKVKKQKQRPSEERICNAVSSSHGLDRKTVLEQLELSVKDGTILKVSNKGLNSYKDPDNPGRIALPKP
Strand | E-score
AGTGTTCG | -0.064
TGACCTCA | -0.232
GCTTACCC | -0.0483
AACTGCTG | -0.0955
ACTCTCAT | -0.147
CGTTTGGC | 0.0914
AGGACTCC | -0.149
ACCTTACG | 0.145
GCAGCCGA | 0.244
ACGGCCAG | 0.228
CCTCAGAA | -0.118
ACAGCAGA | -0.0843
AACCCAAG | -0.215
CACCCCCG | 0.118
ACACACCT | -0.0718
AAAACTTA | -0.263
GACCACGA | -0.184

Study 4
Target: RING finger protein unkempt homolog, zinc fingers 1-6, SBP tag (UNK, Homo sapiens, UniProt Q9C0B0, residues 30-357)
UniProt Q9C0B0, sequence (30-357, looked up): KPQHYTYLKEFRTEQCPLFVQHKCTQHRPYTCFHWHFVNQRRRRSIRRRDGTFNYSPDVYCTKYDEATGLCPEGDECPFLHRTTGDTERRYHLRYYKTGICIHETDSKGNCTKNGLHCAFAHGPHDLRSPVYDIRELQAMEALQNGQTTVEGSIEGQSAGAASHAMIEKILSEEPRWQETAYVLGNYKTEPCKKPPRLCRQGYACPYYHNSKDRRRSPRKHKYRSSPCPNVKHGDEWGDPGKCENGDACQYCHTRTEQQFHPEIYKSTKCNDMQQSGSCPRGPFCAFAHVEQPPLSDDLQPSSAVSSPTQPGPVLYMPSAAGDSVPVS
Method: RNA Bind-n-Seq
Molecule type: RNA
Sample: in vitro
Concentration: 100 nM
Notes: RNA with constant flanks, vertebrate orthologous sites, ends assumed
Reference: input RNA pool
Reading: higher = stronger binding
Strand | bound/input enrichment [ratio]
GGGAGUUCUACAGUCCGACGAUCUGCCCCCCAAGAAUUCAGGACUGGUUUUACCCAUAUACCAAGUAGAUAUGGGACGAACAAUAGACUUGGGCAACCAAGACCAUGAUCGACUCAAGUUUAACUUAUUUUUAUGAGGACUGUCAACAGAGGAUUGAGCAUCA | 0.444
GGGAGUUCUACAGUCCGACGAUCUUAGGUUUUUGUGGGGGGUGGGGAAAGGGAGGCUGGUGUCAGCAUUAUGAAGUAUUCCAAAGGUUUUCUCUCUUUUUCUUUCUUUUUUUGUGUUUUGUUUUCCCUUUUAAUUGGAUGUACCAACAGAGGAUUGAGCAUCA | 1.69
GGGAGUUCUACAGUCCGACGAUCCAGUGCCCUGGGCCGGGACAGAUUUUUUUUUAACUUCUUGAAACUUAAACUCUGUGCUUGUAGGAUACUGUAACCUUUUUGUCUUUUUUUUUUUUUUUUUUUUUUUUAUAAAAAAAAAACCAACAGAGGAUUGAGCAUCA | 1.01
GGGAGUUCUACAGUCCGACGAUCUUUUAUUGAUCAGGUCUGUAAAUGUGUACUAAAAAAAUCAGAGUCUAUUUAUAAACAGAAUAGUUUAUUUAAAGAGGUCUUUCCUCACGAUGUUGUGAUAUGCAUAAUUCCAUUUGUUACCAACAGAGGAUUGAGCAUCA | 0.45
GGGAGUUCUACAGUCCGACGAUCCCGUAAACAGCUCAGGGCAGUACCCUCCCUAUUCUUCAUAUGGCAACCUUAAUCAGGGAUUAGCCAACACAUCAGGGAUGAGUCCCAACUUGAGCCUUACCACCAGCAGUAACAGCAACCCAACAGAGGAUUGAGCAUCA | 0.253
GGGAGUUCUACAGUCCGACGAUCAGGAAGGAGAAAGAACUGAACAGAUUCUUCCUCCCCCGAAUAAAACCAAAAGGAUUUGGUUUGGGUUCUCUCUUGGAAAACAAAGAUGGCCUUUUCUCUUAAUUGUGUAACUAUCACUGCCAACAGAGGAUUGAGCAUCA | 0.409
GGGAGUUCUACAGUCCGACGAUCUAUCAGUAGAAUUACAUAAUACUAAAGUUGCCGUUGAAAGAAUAUCCAAGUAUGUGUUGGUAGUUACUUAAAGAAAUAUAGCUGUUAUUGCCUUGUAUUUAUAGUCCUUGUUUCAGGUUUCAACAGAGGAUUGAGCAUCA | 1.07
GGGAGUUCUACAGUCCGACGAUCCAUGUCCUUGUAACUGUGAUAUUUAAAAUAUCCACAGUAUUCACCUUUUCCAAAUGAUUCUAGUAAUGGUCUAGAAAUAUCUUUCUCUUACCUGUUAUUUAUCAAUUUUUCCCAGUAUUUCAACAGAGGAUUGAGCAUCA | 0.526
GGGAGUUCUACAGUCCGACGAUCAAAUAUACUUCAUGCCAUGGACUCCGUAUCGCACGGAUACUUUGAUAGAAUAUGCUUCUUUAGAGGACUUCCAGAACGGACGCCAGCAGACGACGUACAAACUCCCAAACCGAGUGGAUGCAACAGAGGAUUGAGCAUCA | 0.508
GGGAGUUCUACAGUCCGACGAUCUCUCUACAGUUUUAAAGACACUCCCUUAUAAGGCACUUUGGCUCUUCAUAUAUUUAACCGUAUUUACAUAUCUAUUUUUUAUAAAUAGCAGUAUAAAUUCAAAGGGGACUCCAACCUUUACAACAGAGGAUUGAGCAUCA | 0.325
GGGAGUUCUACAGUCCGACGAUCUUAUUUUCAAUCUCUUCUCCCCCUUCCUGAUUUUAAAAGCCCUUCUUUUUUUAGGCAUAUGUAGUAGCAUUAGCAAAGAUGAUUUAAUUUGGGUAACUUUGAUUCUUAAAACAGAAAACACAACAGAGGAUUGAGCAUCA | 0.851

Study 5
Target: CCNB2, cyclin fold, Cln2 fusion (human)
Method: yeast growth competition, sequencing
Sample: yeast
Notes: weak parent motif
Reference: not given
Reading: higher = stronger binding
Parent: WEE1 docking peptide (human); HKTFRKLRLFDTP
Substitution | normalised enrichment score
HKTFRKLWLFDTP [R8W] | 1.08
HKTFRKLRLFDKP [T12K] | 1.28
HKTFRKLRLFDTG [P13G] | -0.0717
HSTFRKLRLFDTP [K2S] | 0.576
HKWFRKLRLFDTP [T3W] | 0.327
AKTFRKLRLFDTP [H1A] | 0.744
HKTFRFLRLFDTP [K6F] | -0.811
HKNFRKLRLFDTP [T3N] | 0.118
HKTARKLRLFDTP [F4A] | 0.485
HKTFRKLMLFDTP [R8M] | 0.297
HKTFRKHRLFDTP [L7H] | 0.416
HKTFRKLRMFDTP [L9M] | 0.561
HKTFRKLRLFDCP [T12C] | 0.617
HKTFRKLNLFDTP [R8N] | -0.111
HKGFRKLRLFDTP [T3G] | 1.02
HKTFRKLRLFRTP [D11R] | 0.51
